Results pooled from the literature.
Compare with care: the assays were run in different laboratories. Values joined by “and” are separate records of one study, mostly repeats; a detail may differ.

Compound = Cc1ccc(S(=O)(=O)Nc2c(N[C@H]3CC[C@H](NC(=O)Nc4ccc(F)c(Cl)c4)CC3)c(=O)c2=O)cc1; test system = rat, plasma; setting = intravenous, 10 mg/kg; measurement = AUC(0-inf); value = 1.85 µM·h
Compound = CC(=O)N1CCC(Nc2cc(C(=O)NC[C@H](O)CN3CCc4ccccc4C3)ncn2)CC1; test system = relapsed or refractory MDS CMML AML; setting = oral, 400 mg; measurement = deaths; value = 85%
Compound = Cn1cncc1-c1c(F)cncc1NC(=O)c1c(N)nn2cc(F)cnc12; test system = human patients; setting = oral, 220 mg once daily, 21 days, 2 weeks on 1 week off; measurement = patients with upper GI haemorrhage DLT; value = 0%
Compound = C[C@@H](NC(=O)N1C(=O)[C@H](Cc2ccnc(N)c2)[C@H]1C(=O)O)C1CCCCC1; test system = healthy adult Chinese volunteers; setting = continuous intravenous infusion, 2.25 mg/kg/h, 5-day infusion, CTCAE 5.0 grading; measurement = incidence of urine ketone body positive; value = 0%
Compound = Cc1cc(OCCOCCC(F)(F)P(=O)(O)O)ccc1CCc1cnc2c(N)nc3cc(CCC(=O)O)ccc3c2c1; assay = measured: nausea; test system = adults with advanced solid tumours; setting = dose not given, by treatment group, all grades; measurement = patients with non-serious AE; value = 4.8%
Compound = COc1ccc(-c2c(-c3ccc(C#N)c(F)c3)nc(N3CCC(N)CC3)n(C)c2=O)cc1F; assay = measured: Metastasis; test system = human patients; setting = oral, dose not given, dose escalation, NG; measurement = serious adverse event incidence; value = 2%
Compound = CCCC(CCC)NC(=O)c1ccc2c(c1)OCO2; test system = Swiss albino CD-1 mice, male, bone marrow; setting = intraperitoneal, 350 mg/kg, 48 h; measurement = micronucleated PCEs; value = 0.1%
Compound = CC(C)n1c(C2CCNCC2)nc2c([N+](=O)[O-])c(Br)c(Br)cc21; test system = patients with AML; setting = 125 mg, septic shock; measurement = AE leading to interruption; value = 2%
Compound = CCCCCCCCCCCCCCCC(=O)N[C@@H](CCC(=O)NCCCC[C@H](NC(=O)[C@H](CC(=O)O)NC(=O)[C@H](CO)NC(=O)[C@@H](NC(=O)[C@H](Cc1ccccc1)NC(=O)[C@@H](NC(=O)CNC(=O)[C@H](CCC(N)=O)NC(=O)[C@H](CO)NC(=O)[C@@H](N)Cc1c[nH]cn1)[C@@H](C)O)[C@@H](C)O)C(=O)N[C@@H](CO)C(=O)N[C@@H](CCC(=O)O)C(=O)N[C@@H](Cc1ccc(O)cc1)C(=O)N[C@@H](CC(C)C)C(=O)N[C@@H](CC(=O)O)C(=O)N[C@@H](CO)C(=O)N[C@@H](CCC(=O)O)C(=O)N[C@@H](CCCNC(=N)N)C(=O)N[C@@H](C)C(=O)N[C@@H](CCCNC(=N)N)C(=O)N[C@@H](CC(=O)O)C(=O)N[C@@H](Cc1ccccc1)C(=O)N[C@H](C(=O)N[C@@H](C)C(=O)N[C@@H](Cc1c[nH]c2ccccc12)C(=O)N[C@@H](CC(C)C)C(=O)N[C@@H](CCC(=O)O)C(=O)N[C@@H](C)C(=O)NCC(=O)NCC(=O)O)C(C)C)C(=O)O; test system = human, all renal groups; setting = sc, 100 µg single dose; measurement = atrial fibrillation; value = 2.7%
Compound = O=C(c1ccc(F)c(F)c1Nc1ccc(I)cc1F)N1CC(O)([C@@H]2CCCCN2)C1; test system = human patients; setting = oral, 1 mg/kg, age ≥18 years; measurement = adverse events of special interest; value = 100%
Compound = NC(=O)N1c2ccccc2C=Cc2ccccc21; test system = human; setting = oral, dose not given, 25 days, dose up-titration; measurement = participants with adverse events; value = 100%
Compound = CNC(=O)c1cc(Oc2ccc(NC(=O)Nc3cc(C(C)(C)C)nn3-c3ccc4ncccc4c3)c(F)c2)ccn1; assay = ejection fraction decreased, NCI CTC v3.0; test system = human patients; setting = oral, 150 mg twice daily, tablet, dose at onset; measurement = related SAE; value = 3%
Compound = CN1CCC(CNc2ccc3ncc(-c4cccc(OC(F)(F)F)c4)n3n2)CC1; assay = systemic toxicity signature, BioMAP Diversity PLUS; test system = primary human cell cocultures; measurement = lowest toxic concentration; value = ≥ 10 µM
Compound = CCC[C@@](N)(CO)CCc1ccc(OCCCCCC(C)C)cc1; assay = ECG and echocardiography; test system = hound dog, male; setting = dose not given; measurement = QT interval, cardiac conduction; value = no effect
Compound = C[C@@H](O)[C@@H]1NC(=O)CNC(=O)[C@H](Cc2c[nH]cn2)NC(=O)[C@H](Cc2c[nH]c3ccccc23)NC(=O)[C@H](CC(N)=O)NC(=O)CNC(=O)C[C@@H](C(=O)N[C@@H](Cc2c[nH]c3ccccc23)C(=O)N[C@@H](Cc2ccccc2)C(=O)N[C@@H](Cc2ccccc2)C(=O)N[C@@H](CC(N)=O)C(=O)N[C@@H](Cc2ccc(O)cc2)C(=O)N[C@@H](Cc2ccc(O)cc2)C(=O)N[C@@H](Cc2c[nH]c3ccccc23)C(=O)O)NC(=O)[C@@H]2CCCN2C(=O)[C@H](CO)NC1=O; assay = rapid equilibrium dialysis; test system = mouse plasma; setting = 20 µM, time not given; measurement = recovery; value = 98.8%
Compound = CC[C@H](C)[C@H](NC(=O)[C@H](Cc1ccccc1)NC(=O)[C@H](CCC(=O)O)NC(=O)[C@H](CCCNC(=N)N)NC(=O)[C@H](C)NC(=O)[C@H](C)NC(=O)[C@H](CCC(N)=O)NC(=O)[C@H](CCC(=O)O)NC(=O)[C@H](CCC(=O)O)NC(=O)[C@H](CC(C)C)NC(=O)[C@H](Cc1ccc(O)cc1)NC(=O)[C@H](CO)NC(=O)[C@H](CO)NC(=O)[C@@H](NC(=O)[C@H](CC(=O)O)NC(=O)[C@H](CO)NC(=O)[C@@H](NC(=O)[C@H](Cc1ccccc1)NC(=O)[C@@H](NC(=O)CNC(=O)[C@H](CCC(=O)O)NC(=O)[C@H](C)NC(=O)CCc1cnc[nH]1)[C@@H](C)O)[C@@H](C)O)C(C)C)C(=O)N[C@@H](C)C(=O)N[C@@H](Cc1c[nH]c2ccccc12)C(=O)N[C@@H](CC(C)C)C(=O)N[C@H](C(=O)N[C@@H](CCCNC(=N)N)C(=O)NCC(=O)N[C@@H](CCCNC(=N)N)C(=O)N[C@@H](CCCCNC(=O)COCCOCCNC(=O)COCCOCCNC(=O)CC[C@H](NC(=O)CCCCCCCCCCCCCCCCC(=O)O)C(=O)O)C(=O)NCC(=O)NCC(=O)N[C@@H](CO)C(=O)N[C@@H](CCSC)C(=O)N[C@H](C(=O)N[C@@H](CCCCNc1c(NCCCCCN(O)C(=O)CCC(=O)NCCCCCN(O)C(=O)CCC(=O)NCCCCCN(O)C(C)=O)c(=O)c1=O)C(=O)O)C(C)C)C(C)C [zirconium-89 labelled]; assay = ex vivo gamma counting; test system = male Sprague-Dawley rat, blood; setting = intravenous, 1 nmol, 72 h, mean of 3 animals; measurement = tissue uptake; value = 0.029 %ID/g
Compound = N=C(N)NCCC[C@@H](NC(=O)[C@@H](N)Cc1ccccc1)C(=O)N[C@@H](Cc1ccccc1)C(=O)N[C@@H](CCCCN)C(N)=O; assay = LC-MS; test system = human; setting = 5 mg, 23.83 h; measurement = median fraction excreted in urine; value = 1.83%
Compound = CC(C)Nc1ccnc(Nc2cccc(-c3cccnc3)c2)n1; assay = measured: Glucose; test system = mouse, blood; setting = intraperitoneal, 3 mg/kg; measurement = blood chemistry; value = 210 mg/dL
Compound = C[C@]1(O)C[C@@](N)(c2ccc(-c3nc4n(c3-c3ccccc3)COc3ccncc3-4)cc2)C1; test system = human, advanced or metastatic solid tumours; setting = 24 mg intermittent, phase I dose escalation; measurement = patients with AST increased; value = 0%
Compound = CC(C)[C@@H]1NC(=O)CNC(=O)[C@H](CC(N)=O)NC(=O)[C@H](CCCNC(=N)N)NC(=O)[C@H](Cc2ccc(O)cc2)NC(=O)[C@H](C(C)C)NC(=O)[C@@H](NC(=O)[C@@H](NC(=O)[C@H](CC(N)=O)NC(=O)[C@H](Cc2c[nH]c3ccccc23)NC(=O)[C@H](C)NC(=O)[C@H](Cc2ccccc2)NC(=O)CN)C(C)C)CSSC[C@@H](C(=O)N[C@@H](Cc2cnc[nH]2)C(=O)N[C@@H](CCCNC(=N)N)C(=O)N[C@@H](CCCNC(=N)N)C(=O)N[C@@H](C)C(=O)N[C@@H](CC(N)=O)C(N)=O)NC(=O)[C@H](C(C)C)NC(=O)[C@H](CCCNC(=N)N)NC1=O; test system = mouse mammary gland homogenate 50 mg/mL; setting = 24.00 h, 37 °C; measurement = peptide remaining; value = 10.2% and 18.6% and 14.8%
Compound = COc1cc2c(Oc3ccc4[nH]c(C)cc4c3F)ccnc2cc1OCC1(N)CC1; test system = paediatric refractory sarcoma patients; setting = 10 mg; measurement = Dizzy incidence; value = 0%
Compound = CC(=O)c1c(C)c2cnc(Nc3ccc(C4CCN(CCS(C)(=O)=O)CC4)cn3)nc2n(C2CCCC2)c1=O; test system = HR+/HER2- advanced breast cancer patients; setting = oral, 150 mg; measurement = patients with any TEAE; value = 100%
Compound = C[C@]1(CO)Cc2ncn(-c3ccc(C#N)c(Cl)c3)c2C(=O)O1; test system = human, Chinese, plasma; setting = 60 mg single dose, geometric mean; measurement = AUC(0-inf); value = 20.2 µM·h
Compound = c1csc(CNc2cc[nH]n2)c1; assay = micronucleus; test system = CD-1 mouse Hsd:ICR(CD-1), female, bone marrow; setting = oral, 1000 mg/kg/day, 3 days; measurement = micronucleated PCE per 1000 PCE; value = 0.4
Compound = c1cc2ccc3cccc4ccc(c1)c2c34; test system = pooled human liver microsomes; setting = 2.5 µM, pH 7.4; measurement = metabolism rate; value = 123 pmol/min/mg
Compound = CO[C@H]1C[C@@H]2CC[C@@H](C)[C@@](O)(O2)C(=O)C(=O)N2CCCC[C@H]2C(=O)O[C@H]([C@H](C)C[C@@H]2CC[C@@H](OC(=O)NCCOCCOCCOCCOCCOCCOCCOCCOCCC(=O)N3CCc4cc(Cn5nc(-c6ccc7oc(N)nc7c6)c6c(N)ncnc65)ccc4C3)[C@H](OC)C2)C[C@@H](O)[C@H](C)/C=C(\C)[C@@H](O)[C@@H](OC)C(=O)[C@H](C)C[C@H](C)/C=C/C=C/C=C/1C; test system = patients with advanced solid tumours; setting = intravenous, 10 mg weekly, grade ≥3; measurement = incidence of nausea TEAE; value = 0%
Compound = CN1CC[C@@H](c2c(O)cc(O)c3c(=O)cc(-c4ccc(C(F)(F)F)cc4Cl)oc23)[C@@H]1CO; test system = human, relapsed/refractory hematologic malignancies; setting = oral, dose not given; measurement = dyspnea incidence; value = 15%
Compound = O=S(=O)(Nc1ccccc1)c1ccc(NC(=S)Nc2ccccc2)cc1; test system = male mouse, blood; setting = oral, 5 mg/kg daily, 14 days; measurement = haemoglobin; value = 14.1 g/dL
